Measurements of several laboratories.
Protocols differ between the studies behind these lines. “And” joins repeats or separate records; there may be more than shown. ± gives the spread as reported. ≈ marks a conversion by molar mass, not a printed value.

| SMILES | test | system | setting | scale | quantity | result |
| --- | --- | --- | --- | --- | --- | --- |
| CCCC[C@@H]1NC(=O)[C@H](Cc2ccc(O)cc2)NC(=O)[C@@H]2CCCN2C(=O)[C@H](CC(=O)O)NC(=O)[C@H](C)NC(=O)[C@H](Cc2ccccc2)NC(=O)[C@@H]2CSCCC(=O)N3CN(CN(C3)C(=O)CCSC[C@@H](C(=O)N[C@@H](C)C(N)=O)NC1=O)C(=O)CCSC[C@H](NC(C)=O)C(=O)N[C@@H](CC(C)(C)C)C(=O)N1CCC[C@H]1C(=O)N[C@@H](CCC(=O)O)C(=O)N[C@H](CCCCNC(=O)CCc1cn(CCOCCOCCOCCN(CCOCCOCCOCCC(=O)N[C@H]3CSCCC(=O)N4CN5CN(C4)C(=O)CCSC[C@H](NC(=O)[C@@H](CC(=O)O)NC(=O)[C@H](Cc4cccc6ccccc46)NC(=O)[C@@H]4CCCN4C3=O)C(=O)N[C@@H](CCSC)C(=O)N[C@@H](CCCCNC(=N)N)C(=O)N[C@@H](CC(=O)O)C(=O)N[C@@H](Cc3c[nH]c4ccccc34)C(=O)N[C@@H](CO)C(=O)N[C@@H]([C@@H](C)O)C(=O)N3CCC[C@H]3C(=O)N3C[C@H](O)C[C@H]3C(=O)N[C@@H](Cc3c[nH]c4ccccc34)C(=O)N[C@H](C(N)=O)CSCCC5=O)CCOCCOCCOCCn3cc(CCC(=O)NCCCC[C@H]4NC(=O)[C@H](CCC(=O)O)NC(=O)[C@@H]5CCCN5C(=O)[C@H](CC(C)(C)C)NC(=O)[C@@H](NC(C)=O)CSCCC(=O)N5CN6CN(C5)C(=O)CCSC[C@H](NC(=O)[C@H](Cc5ccc(O)cc5)NC(=O)[C@@H]5CCCN5C4=O)C(=O)N[C@@H](Cc4ccccc4)C(=O)N[C@@H](C)C(=O)N[C@@H](CC(=O)O)C(=O)N4CCC[C@H]4C(=O)N[C@@H](Cc4ccc(O)cc4)C(=O)N[C@@H](CCCC)C(=O)N[C@H](C(=O)N[C@@H](C)C(N)=O)CSCCC6=O)nn3)nn1)C(=O)N1CCC[C@H]1C(=O)N[C@@H](Cc1ccc(O)cc1)C(=O)N2 | NanoString, measured: Cd200r1-mRNA | mouse bearing MC38-Nectin-4 tumour, circulating white blood cells | 5 mg/kg, 24 h after dosing, unit not given | baseline: vehicle | mRNA level | 1.69 |
| Cc1ccc(C2=CC(C)(C)Oc3ccc(-c4ccc(-c5ccc(C(=O)O)cc5)[nH]4)cc32)cc1 |  | CD1 mouse, male, testis | 10 mg/kg/day, 4 weeks after treatment, dosed for 4 weeks |  | tubules with sperm release failure | 2.3% and 5% and 5.2% and 1.8% and 2.1% |
| COc1ccccc1-c1n[nH]c2nc(NC3CCN(C(=O)Cc4ccc(F)cc4F)CC3)ncc12 | bead binding, competition bead pull-down, measured: LMJF.07.0340 | Leishmania donovani axenic amastigote extract | 10 µM | baseline: vehicle | relative abundance | 0.91 |
| CC[C@H](C)[C@H](NC(=O)[C@H](CCCNC(=N)N)NC(=O)[C@H](CO)NC(=O)[C@H](Cc1ccc(O)cc1)NC(=O)[C@@H](NC(=O)[C@@H](NC(=O)[C@H](C)NC(=O)CNC(=O)[C@H](CCCCN)NC(=O)[C@H](CCCCN)NC(=O)CCNC(=O)CCCCCNC(=O)[C@H](CCCNC(=N)N)NC(=O)CCCCCNC(=O)[C@H](CCCNC(=N)N)NC(=O)[C@H](CCCNC(=N)N)NC(=O)CCCCCNC(=O)[C@H](CCCNC(=N)N)NC(=O)[C@H](CCCNC(=N)N)NC(=O)CCCCCNC(=O)[C@H](CCCNC(=N)N)NC(=O)[C@H](CCCNC(=N)N)NC(=O)CCCCCNC(=O)[C@@H](N)CCCNC(=N)N)C(C)C)[C@@H](C)O)C(=O)N[C@@H](CO)C(=O)NCC(=O)N[C@@H](CCC(N)=O)C(=O)N[C@@H](Cc1ccc(O)cc1)C(=O)N[C@@H](CCCCN)C(=O)O | broth microdilution | 29213, Mueller-Hinton broth | 16 to 18 h, 37 °C |  | MIC | 24 µM (≈ 85.7 µg/mL) |
| CCCCCC1=C(NCC)C(=O)C(C/C=C(\C)CCC=C(C)C)=C(O)C1=O | RNA-seq GSEA, measured: HALLMARK_INTERFERON_ALPHA_RESPONSE | mouse, A53T α-synuclein lesioned, striatum | dose not given | baseline: untreated A53T lesioned mice, direction not given | normalised enrichment score | 3.27 |
| CCN(Cc1ccccc1)C(=O)CCc1nc(CN2CCN(C(=O)Cc3ccc(OC)c(OC)c3)CC2)no1 | beam walking test | mouse, CCI neuropathic pain model | 20 mg/kg |  | beam crossing time | 6.58 ± 0.526 s |
| COc1ccccc1-c1n[nH]c2nc(N[C@H]3CC[C@H](NS(=O)(=O)CC(C)C)CC3)ncc12 | bead binding, competition bead pull-down, measured: LINJ.33.2520 | Leishmania donovani extract | 10 µM | baseline: vehicle | relative abundance | 0.94 |
| O=C(O)c1ccc(-c2nc(-c3ccccc3Cl)c3sccn23)cc1 |  | C57BL/6 mice | dose not given, day 3, basal hematopoiesis |  | platelet count change | 105% and 174% and 160% |

Some of these lines once more:
| SMILES | test | system | setting | scale | quantity | result |
| --- | --- | --- | --- | --- | --- | --- |
| CC[C@H](C)[C@H](NC(=O)[C@H](CCCNC(=N)N)NC(=O)[C@H](CO)NC(=O)[C@H](Cc1ccc(O)cc1)NC(=O)[C@@H](NC(=O)[C@@H](NC(=O)[C@H](C)NC(=O)CNC(=O)[C@H](CCCCN)NC(=O)[C@H](CCCCN)NC(=O)CCNC(=O)CCCCCNC(=O)[C@H](CCCNC(=N)N)NC(=O)CCCCCNC(=O)[C@H](CCCNC(=N)N)NC(=O)[C@H](CCCNC(=N)N)NC(=O)CCCCCNC(=O)[C@H](CCCNC(=N)N)NC(=O)[C@H](CCCNC(=N)N)NC(=O)CCCCCNC(=O)[C@H](CCCNC(=N)N)NC(=O)[C@H](CCCNC(=N)N)NC(=O)CCCCCNC(=O)[C@@H](N)CCCNC(=N)N)C(C)C)[C@@H](C)O)C(=O)N[C@@H](CO)C(=O)NCC(=O)N[C@@H](CCC(N)=O)C(=O)N[C@@H](Cc1ccc(O)cc1)C(=O)N[C@@H](CCCCN)C(=O)O | broth microdilution | 29213, Mueller-Hinton broth | 16 to 18 h, 37 °C |  | MIC | 24 µM (≈ 85.7 µg/mL) |
